Published values pooled from the literature.
Every numbered part comes from another study and shows a few of its results, in no order. Substitutions count along the parent as printed.

Series 1
Target: Interferon regulatory factor 7, full length, phosphomimetic (IRF7, Homo sapiens, UniProt Q92985, residues 1-503, S101K/S471D/S472D/S475D/S476D/S477D/S483D/S484D/S487D)
Method: protein-binding microarray
Form: double-stranded DNA, one strand shown
Matrix: in vitro
Tested at: 250 nM
Setting: 60-bp whole probe
With: salmon DNA 0.4 mg/ml
Baseline: random background probes
Direction: higher = stronger binding
Quantity: log fluorescence
Shared flanks, not repeated: GCCTAGCAC … GTCTTGATTCGCTTGACGCTGCTG
Target sequence (chain): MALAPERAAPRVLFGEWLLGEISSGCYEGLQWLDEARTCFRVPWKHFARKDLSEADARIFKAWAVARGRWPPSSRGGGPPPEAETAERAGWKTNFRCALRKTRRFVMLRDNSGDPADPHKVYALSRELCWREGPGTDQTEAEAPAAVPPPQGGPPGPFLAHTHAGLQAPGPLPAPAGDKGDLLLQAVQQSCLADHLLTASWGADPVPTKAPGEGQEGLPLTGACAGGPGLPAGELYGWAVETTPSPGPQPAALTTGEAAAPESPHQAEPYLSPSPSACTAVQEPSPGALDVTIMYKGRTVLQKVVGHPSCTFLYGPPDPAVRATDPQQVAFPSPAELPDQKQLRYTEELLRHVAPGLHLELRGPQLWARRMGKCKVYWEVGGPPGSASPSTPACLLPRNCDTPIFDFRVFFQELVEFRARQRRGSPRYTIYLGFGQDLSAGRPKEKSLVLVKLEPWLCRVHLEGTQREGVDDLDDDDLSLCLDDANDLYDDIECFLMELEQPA
GACGGTTTCGCTCTCGGGACGTGCTAG: 6.17 z-score
GACGGTCTCCTTTTCCTGGCGTGCTAG: 1.37 z-score
AACGGTCTCGGTTTCGGGACGTGCTAG: 7.98 z-score
TTAGACCTGGGGACTGGATTAGTGCTA: -0.309 z-score
TTAGAACTGAGTATCGATCAGTGCTAG: -0.112 z-score
TTAGGTTTCGGTTGCGGTTAGTGCTAG: 9.15 z-score
TTGGATATCAGTTTCGATTAGTGCTAG: 8.19 z-score
GAGGATTTCGGGTTTCGAGACGTGCTA: 3.44 z-score
GACGATCTCAGTATCGATACGTGCTAG: 0.556 z-score
TTAGGTTTCGGTCTCGGTTGGTGCTAG: 8.12 z-score
TCACCCTTGCTTTCCAAACTGTGCTAG: 0.429 z-score
TCAGTCTTCCCCATCTTACTGTGCTAG: 1.41 z-score
GACGATATCGGGTTTCAAGACGTGCTA: 0.164 z-score
TTCGATCTCAGACTGGATTAGTGCTAG: 0.244 z-score
GACGGTCTGGGGTTTCGGGACGTGCTA: 0.591 z-score
TCAGATATCTTTTTCCTACTGTGCTAG: 1.05 z-score
TTAGGTATCGGGACTGGTTTAGTGCTA: 0.426 z-score
GATGATTTCAGTTTCGAGACGTGCTAG: 4.87 z-score

Series 2
Target: CCNA1, cyclin fold, Cln2 fusion (human)
Method: yeast growth competition, sequencing
Matrix: yeast
Setting: weak parent motif
Baseline: not given
Direction: higher = stronger binding
Quantity: normalised enrichment score
Starting sequence: DBF4 docking peptide (human); DDIVSKLVFDFVE; partner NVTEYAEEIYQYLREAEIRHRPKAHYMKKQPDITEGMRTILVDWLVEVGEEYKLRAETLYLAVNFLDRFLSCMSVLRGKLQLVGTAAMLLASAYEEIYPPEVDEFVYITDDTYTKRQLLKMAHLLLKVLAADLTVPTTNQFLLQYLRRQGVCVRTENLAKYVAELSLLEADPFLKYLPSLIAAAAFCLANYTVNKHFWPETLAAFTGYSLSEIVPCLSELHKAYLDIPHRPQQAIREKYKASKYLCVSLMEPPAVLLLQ
F9A: 0.0812
S5A: -0.443
L7A: -0.607
V8A: -0.357
D1A: -0.482
D2A: -0.245

Series 3
Target: RNA binding protein fox-1 homolog 2, RRM domain, GST-SBP tag (RBFOX2, Homo sapiens, UniProt O43251-10, residues 100-194)
Method: RNA Bind-n-Seq
Form: RNA
Matrix: in vitro
Tested at: 365 nM
Setting: natural RNA segment, single round, ends assumed
Baseline: no-protein control
Direction: higher = stronger binding
Quantity: RBNS enrichment (R)
Shared flanks, not repeated: GGGAGUUCUACAGUCCGACGAUC … UGGAAUUCUCGGGUGCCAA
Construct (chain): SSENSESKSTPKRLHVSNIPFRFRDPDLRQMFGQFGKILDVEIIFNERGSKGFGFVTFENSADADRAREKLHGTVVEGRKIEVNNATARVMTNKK
CUGAGAACCAAAGCAACCCCAGGUGCAUAAUUGUAUAACUUACAGUCUCCCAUCAAGACUACCUCAUAGUCCAGUAGAUCCACUCCGUGACCAAGGACAUCAUGCUCUGU: 0.408
UCCAGCUCAGUCCACUGGAAUUGUAUUAGGUUUUGUUUUUUUUUGUUUAUUCCCUUUUCACUGGUCCCGUUCGUGAAUGAGUGAAUAUAAGAAGCCUGUCAGUAUUGCCA: 0.922
AAAUAUCCUGAGCUUUGAGUGUCCUUUCACAGAGUGAACAAAACUGGUGUGGUGUAGACACGGCUUCUUUUGGCAUAUUCUAGAUCAGACAGUGUCACUGACAAACAAGA: 0.266
CCCAGACUUCAACCCCACAGAGUCCUCUCUUACCACCCCCAUAUGCUUCGCCCCACUGCAUAGCUGUGUUAAGCUACAUGGCUUUAAUGAUAAAUGGGUUUAUUUCUAAG: 0.548
UCAUGUGUGCAACAGGGUAUGGACUAUCUGUCUGGUGGCCCCGUUUCUGGUGGUCUGUUGGCAGGCUGGCCAGUCCAGGCUGCCGUGGGGCCGCCGCCUCUUUCAAGCAG: 0.371
GCUGGGGCAGGCAACUACCCGUCCUCAAGCCCGCUGUUUCUGUCUCCCUACCAGACAGGCCUCUGGGAAUGGAGAGAGAAGCAGCUGAGUAGAACAUGAACUAGUUAGAG: 0.304
CCCAGGGCACCUAGCUGUCCCUGCUGGUCCUGGGGCUGCCAGAAUUCCCUUGGGCGCCAAGCAACCUGCCAGGUAGCCAGUCCCUCUGUUACAAGCCUUUGCAUCUGGAU: 0.367
GCGGUUUUAUACUUUUUUUAUGAGUUAUGAUAGCAGCAAUUACGUUGUUUGUAUUUUGCUUAACUAAAACAAAAAUGCUUUUAUCUUGCUAUAGAAUAAACACAUUUCAG: 0.519
ACGUACUGUAUUUUUACAAUGAUCGUCGCAUGGCUCUCCCACCCCCUUUUGUACUCAGUAUCUGUCUUCCAGAAACCUCACCUGCCUUCUCUCUCAUGUGGUCUCUUAAU: 0.518
UAAUAUGAGAUUUCUACUUCGGAGAGGCCAAGUCUAAUGAAGAGAAAAAAAGGAAAAGAAGUUGCAAGACUCGAAUAAAAUCUGCUGCACCUUGUAAAUGCUCUAACUGG: 0.295
AAGCACAAAGCAACGUGCAAUACAAAAAUCGUAUCUCAAGGGAAAAUACUCAAAGAAAGAAAAGUGGCAGCACUUAUAUUAGUUUUAUAACAGGAUAAAGUCUUGUGUAU: 0.294
AAUCUGUUUGUGUUUCUGAGCCUGGUUCCUCCAAGACACAGGAAUGAAGUGGGGCCACAGAUUUAGAAUCCAUUUAAGUUUCCCUGUUGUGUGUCUGUGUUGACCCUGGG: 0.916

Series 4
Target: RING finger protein unkempt homolog, zinc fingers 1-6, GST-SBP tag (UNK, Homo sapiens, UniProt Q9C0B0, residues 30-357)
Method: RNA Bind-n-Seq
Form: RNA
Matrix: in vitro
Tested at: not given
Setting: RNA with constant flanks, human-mouse chimeric sites, ends assumed
Baseline: input RNA pool
Direction: higher = stronger binding
Quantity: bound/input enrichment
Shared flanks, not repeated: GGGAGUUCUACAGUCCGACGAUC … CAACAGAGGAUUGAGCAUCA
Construct (chain): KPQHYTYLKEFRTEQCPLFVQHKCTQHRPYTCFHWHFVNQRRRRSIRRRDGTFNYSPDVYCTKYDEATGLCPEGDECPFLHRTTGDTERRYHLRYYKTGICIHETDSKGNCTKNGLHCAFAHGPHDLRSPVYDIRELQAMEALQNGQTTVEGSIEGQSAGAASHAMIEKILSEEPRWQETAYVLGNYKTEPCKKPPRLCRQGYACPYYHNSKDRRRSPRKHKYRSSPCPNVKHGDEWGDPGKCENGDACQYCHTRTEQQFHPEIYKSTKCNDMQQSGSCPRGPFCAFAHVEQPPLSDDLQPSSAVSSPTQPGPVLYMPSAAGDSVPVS
UUCCCAACCUCCCGCCUCACCCCACCCCCGCUUUUUGGAAAGUUUUUGGCGUUUCUUUUCCUUCCCCAUACAAAGUGGUUUUUACCACCCCCGCAAGGGUCUAUCGAAGGGCUUGACGGA: 0.45 ratio
AAUUUCCUGUCAUACUUUUUAGACAUUGCCAUAGGUAUUACAGAGCACCUGGCCACAUUCUAGGUUUGUGUUAUUUCUCAGCUAUGGAUAUGAUCAAAUGAGAACACUGCUUAACUAAUG: 0.853 ratio
AUUGUUGAAGCUAACCCACUUUUAGAAGCAUUUGGAAAUGCAAAGACUGUUCGCAACAAUAAUAGCAGUCGAUUUGGAAAAUUUGUAGAAAUUCAUUUUAAUGAAAAGAGUUCGGUUGUU: 1.03 ratio
GGUGGGGGGUUGUCAUUCGUUUGAGCUGCUGAUUUUCAUGAGUCGCCUUCAAAACUCUCGUGUAGGGUUGACAAUGUGGGGGGGUGGGAAAUCUAGCUUAUUCUUUUAUUUUCAAGUCCA: 21.8 ratio
AAAGAGAAACUAAAGCAACUAAUAGAGAAGAGGAUUGGGCAAAGAGAUUUCAUAGAGAAACUAGGAUUUAUUAGCAAACAUGAGUUAUAUUCCAGAGCGUCUCAGAAACCCCAGCCAAAC: 3.97 ratio
AGCACAACACCAGCUAAGCUAAGAAAUCCUUGUACAAGUGAACAAAACUGCACCAGCCCAUUUAGCUACAAAAAUGUGCUUAGUCUUACUGACAGAGGAGAGUUUUUCAAUGAACUUGUU: 1.02 ratio
CCAAGUGAUUCAUUCCAAGGACAGGCCACCCCAUUUGAUGCCUGGACUGAUGACAGUAUGGAAGGGCCUAGUCAAAAUGUUGAAGCUGAGUCAAUUCAGGAUGCCAUGAGUAUGGAAGAG: 0.242 ratio
AAAGAGAAACUAAAGCAACUAAUAGAGGAAGAGGAUUGCAAAGAGAAUUUCAUAGAGAAACUAGGAUUUAUUAGCAAACAUGAGUUAUAUUCCAGAGCGUCUCAGAAAACCCCAGCCAAC: 6.83 ratio
UGACAAGGGCACUGCAGGGCCAUGCCUUUCCUUGACAUACAGAAAAAGCUGGGCAUCAACAUAGAUCGGCACUUUAUGUUCCUAAGCGCAGAACAGCCCUAUAAGAACGCCGCUCGGUGC: 0.0878 ratio
CUUUUUAAGAAGAUAUGUGAUGGGAUCUUCUAUACCCCUCAGUACUUAAACCCUUCAGUAAUCAGCCUUUUGAAACAUAUGCUGCAGGUGGAUCCCAUGAAGAGGGCCACAAUCAAAGAU: 0.174 ratio
CUGGCCUGGCCCUCCCCAGGGGCCUCCUUCUCUGCAUUCACUGCUUCUGCAUCAGAUACUUUCAGCUGCAACUCCCUACUGGGUGGGGCACCCAUUUGAGGCAGGGUGUUUUGGUACCCU: 0.328 ratio

For quick reference, copied from above (series 3):
GCGGUUUUAUACUUUUUUUAUGAGUUAUGAUAGCAGCAAUUACGUUGUUUGUAUUUUGCUUAACUAAAACAAAAAUGCUUUUAUCUUGCUAUAGAAUAAACACAUUUCAG: 0.519
ACGUACUGUAUUUUUACAAUGAUCGUCGCAUGGCUCUCCCACCCCCUUUUGUACUCAGUAUCUGUCUUCCAGAAACCUCACCUGCCUUCUCUCUCAUGUGGUCUCUUAAU: 0.518
UAAUAUGAGAUUUCUACUUCGGAGAGGCCAAGUCUAAUGAAGAGAAAAAAAGGAAAAGAAGUUGCAAGACUCGAAUAAAAUCUGCUGCACCUUGUAAAUGCUCUAACUGG: 0.295
AAGCACAAAGCAACGUGCAAUACAAAAAUCGUAUCUCAAGGGAAAAUACUCAAAGAAAGAAAAGUGGCAGCACUUAUAUUAGUUUUAUAACAGGAUAAAGUCUUGUGUAU: 0.294
AAUCUGUUUGUGUUUCUGAGCCUGGUUCCUCCAAGACACAGGAAUGAAGUGGGGCCACAGAUUUAGAAUCCAUUUAAGUUUCCCUGUUGUGUGUCUGUGUUGACCCUGGG: 0.916
